Experimental data from different studies.
Numbered parts are unrelated; each lists some results of a single study. Changes are numbered by the printed parent chain.

Block 1 — technique: DNA-protein interaction ELISA; form: double-stranded DNA, one strand shown; matrix: in vitro, bacterial lysate; tested at: not given; notes: whole dsDNA probe, crude lysate protein; baseline: highest signal in screen; reading: higher = stronger binding; endpoint: relative absorbance
Target: Probable WRKY transcription factor 50, DNA-binding domain (WRKY50, Arabidopsis thaliana, UniProt Q8VWQ5, residues 99-173)
Target sequence (chain): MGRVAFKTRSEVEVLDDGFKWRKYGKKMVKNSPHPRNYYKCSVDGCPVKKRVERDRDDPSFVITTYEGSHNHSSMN
AAAAAAGGTCCAGTCCACGTCATCAGAAAA: 98 % of maximum
AAAAAACCAGTCTACACCGCTGTAGGAAAA: 15.2 % of maximum
AAAAAAGGTTTAGCCCATGCCTGTGCAAAA: 27.7 % of maximum
AAAAAAGTCCATAAACTAAATTGGATAAAA: 21.7 % of maximum
AAAAAATTGCCGTCATAATTGTGGTAAAAA: 11.8 % of maximum
AAAAAACCGTATGTATATCTATATGTAAAA: 47.7 % of maximum
AAAAAATGACCAGGCCTCGAGCAAAAA: 31.3 % of maximum
AAAAAATTAGGACCATCCCCACTAGGAAAA: 8.36 % of maximum

Block 2 — technique: aptamer microarray, sandwich; form: DNA with 2'F-ANA; matrix: in vitro; tested at: 200 nM; with: Cy3 exosite-II aptamer, 400 nM; reading: higher = stronger binding; endpoint: mean fluorescence intensity; sequence: GGTTGGTGTGGTTGG
Target: Prothrombin, mature alpha-thrombin (F2, Homo sapiens, UniProt P00734)
Notes: whole 15-mer aptamer, many near background
2'F-ANA at 2 4 5 7 9 10 11 13 14: 45.9 a.u.
2'F-ANA at 2 7 9 10 11 13 15: 98.5 a.u.
2'F-ANA at 2 4 5 7 12 13: 107 a.u.
2'F-ANA at 2 3 4 7 9 10 11 12 13 14 15: 156 a.u.
2'F-ANA at 1 2 3 5 12 13 15: 82.1 a.u.
2'F-ANA at 1 2 4 6 7 11 14 15: 47.3 a.u.
2'F-ANA at 1 3 5 8 10 11 12 13 14 15: 47.7 a.u.
2'F-ANA at 1 2 5 8 9 10 14 15: 52.5 a.u.

Block 3 — technique: protein-binding microarray; form: double-stranded DNA, one strand shown; matrix: in vitro; tested at: 0.8 µM; notes: whole 60-bp probe, no competitor; reading: higher = stronger binding; endpoint: fluorescence intensity; all sequences stand within: … GTCTTGATTCGCTTGACGCTGCTG
Target: Centromere-binding protein 1, full length, N-terminal tag (CBF1, Saccharomyces cerevisiae, UniProt P17106, residues 1-351)
Chain of UniProt P17106 (whole entry, looked up): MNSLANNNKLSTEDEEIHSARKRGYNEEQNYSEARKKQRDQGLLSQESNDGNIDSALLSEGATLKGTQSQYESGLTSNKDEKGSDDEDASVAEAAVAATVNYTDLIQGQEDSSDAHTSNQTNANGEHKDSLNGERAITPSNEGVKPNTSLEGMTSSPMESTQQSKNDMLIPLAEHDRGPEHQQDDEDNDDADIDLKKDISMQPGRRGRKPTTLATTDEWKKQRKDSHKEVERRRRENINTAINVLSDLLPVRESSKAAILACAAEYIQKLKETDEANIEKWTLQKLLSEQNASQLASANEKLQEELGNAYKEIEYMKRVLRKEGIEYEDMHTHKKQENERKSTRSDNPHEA
CCTAACTACTATAGTGATGTTACATAGCTTCGTACA: 500 a.u.
CTATTTTTAAATCGTGACATGTGCTTTAATAGATTC: 2340 a.u.
GAATTTCATTACCCGGACGTGGTGTTTTTTGTTTAG: 498 a.u.
CTACACGTGATTTAATATATCCTGTTTTTTTTTTTC: 9110 a.u.
CTATGGCGAACTGTGAACGTGCGCAGGGCAGAATTC: 594 a.u.
CTATGGTGCTCCCGTTACGTGGTCATCGAAGAATTC: 572 a.u.
GAATTTTCATAATGTCACGTGCACTATCAATAATAG: 19400 a.u.
CTAGGAGAAGACAGGCACGCAGAAACGAACGTTTTC: 480 a.u.

Mixed results — starting sequence: viral docking peptide; TSVRRALFTGGSD
V3A
normalised enrichment score (CCNF, cyclin fold, Cln2 fusion (human); yeast growth competition, sequencing; yeast; strong parent motif; baseline: not given, higher = stronger binding): 7.33

For quick reference, copied from above (block 2):
2'F-ANA at 1 2 3 5 12 13 15: 82.1 a.u.
